Measurements of several laboratories.
A part holds a random share of what one study measured.
UniProt Q6P2M8, sequence (whole entry, looked up): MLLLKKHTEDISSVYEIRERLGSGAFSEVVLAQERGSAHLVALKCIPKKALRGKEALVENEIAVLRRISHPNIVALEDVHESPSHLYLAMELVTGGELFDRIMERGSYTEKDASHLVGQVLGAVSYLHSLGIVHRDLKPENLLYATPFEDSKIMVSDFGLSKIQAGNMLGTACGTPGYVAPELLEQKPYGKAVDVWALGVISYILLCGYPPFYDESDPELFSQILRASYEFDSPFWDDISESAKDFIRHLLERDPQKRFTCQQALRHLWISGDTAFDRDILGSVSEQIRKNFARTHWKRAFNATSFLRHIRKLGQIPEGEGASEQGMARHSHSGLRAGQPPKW
UniProt O75582, sequence (whole entry, looked up): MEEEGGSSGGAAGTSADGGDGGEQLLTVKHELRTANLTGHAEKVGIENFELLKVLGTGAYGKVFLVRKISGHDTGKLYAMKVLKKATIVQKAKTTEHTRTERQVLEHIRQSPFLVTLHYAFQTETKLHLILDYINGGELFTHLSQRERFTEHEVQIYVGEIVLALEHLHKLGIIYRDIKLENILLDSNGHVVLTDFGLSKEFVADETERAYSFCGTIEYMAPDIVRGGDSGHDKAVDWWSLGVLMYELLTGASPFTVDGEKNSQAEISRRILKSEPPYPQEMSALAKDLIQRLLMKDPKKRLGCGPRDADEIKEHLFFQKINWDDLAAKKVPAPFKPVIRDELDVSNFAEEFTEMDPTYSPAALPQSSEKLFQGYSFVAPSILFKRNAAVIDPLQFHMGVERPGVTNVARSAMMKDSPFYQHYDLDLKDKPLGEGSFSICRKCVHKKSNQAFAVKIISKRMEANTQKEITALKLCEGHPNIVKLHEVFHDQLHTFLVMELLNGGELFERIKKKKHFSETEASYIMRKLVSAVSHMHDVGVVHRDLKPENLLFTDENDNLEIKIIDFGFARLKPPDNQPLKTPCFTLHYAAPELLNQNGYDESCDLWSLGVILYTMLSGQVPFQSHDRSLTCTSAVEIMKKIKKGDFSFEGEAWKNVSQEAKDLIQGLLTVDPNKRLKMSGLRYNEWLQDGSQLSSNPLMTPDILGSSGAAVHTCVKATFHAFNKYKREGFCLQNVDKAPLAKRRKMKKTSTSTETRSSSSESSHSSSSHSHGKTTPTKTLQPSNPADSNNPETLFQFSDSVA
UniProt Q96L34, sequence (whole entry, looked up): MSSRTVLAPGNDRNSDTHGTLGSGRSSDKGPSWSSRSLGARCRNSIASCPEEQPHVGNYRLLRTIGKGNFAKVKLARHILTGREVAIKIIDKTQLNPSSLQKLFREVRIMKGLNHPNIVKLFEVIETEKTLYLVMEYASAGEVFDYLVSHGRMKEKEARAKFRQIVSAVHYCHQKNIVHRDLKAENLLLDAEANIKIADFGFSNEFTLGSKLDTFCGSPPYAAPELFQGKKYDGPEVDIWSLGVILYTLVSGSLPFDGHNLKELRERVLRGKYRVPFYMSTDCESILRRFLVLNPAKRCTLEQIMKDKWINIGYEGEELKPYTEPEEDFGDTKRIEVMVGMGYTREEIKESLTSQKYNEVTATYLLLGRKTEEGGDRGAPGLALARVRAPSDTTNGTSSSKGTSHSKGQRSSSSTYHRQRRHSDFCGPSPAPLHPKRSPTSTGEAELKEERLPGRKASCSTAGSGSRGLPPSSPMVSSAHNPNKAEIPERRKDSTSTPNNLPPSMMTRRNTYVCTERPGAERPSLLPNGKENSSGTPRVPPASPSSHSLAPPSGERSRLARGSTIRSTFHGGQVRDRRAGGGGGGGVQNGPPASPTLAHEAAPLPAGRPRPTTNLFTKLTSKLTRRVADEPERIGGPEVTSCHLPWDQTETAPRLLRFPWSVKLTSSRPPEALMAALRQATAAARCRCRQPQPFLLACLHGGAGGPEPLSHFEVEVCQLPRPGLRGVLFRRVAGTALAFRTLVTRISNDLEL
UniProt P06493, sequence (whole entry, looked up): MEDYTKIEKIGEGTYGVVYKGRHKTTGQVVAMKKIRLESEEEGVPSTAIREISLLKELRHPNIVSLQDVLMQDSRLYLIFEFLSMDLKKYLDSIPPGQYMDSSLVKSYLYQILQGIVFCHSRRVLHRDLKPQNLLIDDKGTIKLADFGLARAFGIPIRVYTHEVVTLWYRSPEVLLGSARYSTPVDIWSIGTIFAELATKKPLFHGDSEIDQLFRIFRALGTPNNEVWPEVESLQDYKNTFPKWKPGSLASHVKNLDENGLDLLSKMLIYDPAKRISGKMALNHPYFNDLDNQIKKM
UniProt P35968, sequence (whole entry, looked up): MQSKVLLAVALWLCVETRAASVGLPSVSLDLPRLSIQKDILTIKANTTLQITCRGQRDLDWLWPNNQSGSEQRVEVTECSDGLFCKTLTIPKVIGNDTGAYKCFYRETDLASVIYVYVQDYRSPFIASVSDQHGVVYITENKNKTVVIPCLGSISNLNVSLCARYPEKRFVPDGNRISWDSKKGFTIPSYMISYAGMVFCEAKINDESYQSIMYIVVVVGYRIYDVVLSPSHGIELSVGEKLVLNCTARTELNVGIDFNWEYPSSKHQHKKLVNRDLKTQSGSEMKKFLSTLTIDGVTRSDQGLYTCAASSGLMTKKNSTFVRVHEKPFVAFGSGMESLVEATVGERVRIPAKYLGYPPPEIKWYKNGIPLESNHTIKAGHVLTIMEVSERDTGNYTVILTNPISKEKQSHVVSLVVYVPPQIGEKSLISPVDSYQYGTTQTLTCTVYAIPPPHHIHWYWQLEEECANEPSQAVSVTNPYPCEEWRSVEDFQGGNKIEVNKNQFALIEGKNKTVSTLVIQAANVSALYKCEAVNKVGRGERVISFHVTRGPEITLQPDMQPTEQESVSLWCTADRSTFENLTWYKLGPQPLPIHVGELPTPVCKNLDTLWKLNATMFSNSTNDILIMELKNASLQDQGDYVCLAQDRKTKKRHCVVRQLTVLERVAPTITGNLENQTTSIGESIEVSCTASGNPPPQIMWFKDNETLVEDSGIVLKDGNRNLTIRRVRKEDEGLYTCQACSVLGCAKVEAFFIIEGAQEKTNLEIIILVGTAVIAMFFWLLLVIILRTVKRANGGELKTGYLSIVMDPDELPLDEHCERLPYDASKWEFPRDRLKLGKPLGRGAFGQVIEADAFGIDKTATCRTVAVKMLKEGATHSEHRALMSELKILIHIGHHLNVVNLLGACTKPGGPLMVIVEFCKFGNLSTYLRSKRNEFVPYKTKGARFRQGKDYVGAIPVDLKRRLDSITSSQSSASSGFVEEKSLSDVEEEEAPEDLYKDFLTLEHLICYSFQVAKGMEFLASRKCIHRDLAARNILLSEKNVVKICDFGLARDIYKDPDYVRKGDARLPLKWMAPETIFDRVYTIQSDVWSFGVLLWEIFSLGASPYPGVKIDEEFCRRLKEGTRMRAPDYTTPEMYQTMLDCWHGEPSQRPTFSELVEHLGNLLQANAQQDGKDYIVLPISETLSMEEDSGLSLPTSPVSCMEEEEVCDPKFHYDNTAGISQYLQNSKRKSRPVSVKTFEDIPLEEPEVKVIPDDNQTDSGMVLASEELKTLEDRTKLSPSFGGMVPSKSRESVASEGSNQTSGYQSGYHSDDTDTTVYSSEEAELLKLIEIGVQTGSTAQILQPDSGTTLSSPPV
UniProt P50750, sequence (whole entry, looked up): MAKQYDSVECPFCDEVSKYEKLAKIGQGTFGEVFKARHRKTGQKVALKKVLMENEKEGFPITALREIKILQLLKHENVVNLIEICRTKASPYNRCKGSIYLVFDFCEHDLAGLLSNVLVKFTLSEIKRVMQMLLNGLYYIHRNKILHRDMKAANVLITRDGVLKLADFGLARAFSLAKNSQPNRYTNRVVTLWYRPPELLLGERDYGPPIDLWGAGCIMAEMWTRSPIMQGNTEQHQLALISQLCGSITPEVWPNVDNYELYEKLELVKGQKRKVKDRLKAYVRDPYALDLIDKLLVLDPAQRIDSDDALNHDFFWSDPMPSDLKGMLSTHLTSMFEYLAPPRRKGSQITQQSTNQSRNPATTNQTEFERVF
UniProt P23443, sequence (whole entry, looked up): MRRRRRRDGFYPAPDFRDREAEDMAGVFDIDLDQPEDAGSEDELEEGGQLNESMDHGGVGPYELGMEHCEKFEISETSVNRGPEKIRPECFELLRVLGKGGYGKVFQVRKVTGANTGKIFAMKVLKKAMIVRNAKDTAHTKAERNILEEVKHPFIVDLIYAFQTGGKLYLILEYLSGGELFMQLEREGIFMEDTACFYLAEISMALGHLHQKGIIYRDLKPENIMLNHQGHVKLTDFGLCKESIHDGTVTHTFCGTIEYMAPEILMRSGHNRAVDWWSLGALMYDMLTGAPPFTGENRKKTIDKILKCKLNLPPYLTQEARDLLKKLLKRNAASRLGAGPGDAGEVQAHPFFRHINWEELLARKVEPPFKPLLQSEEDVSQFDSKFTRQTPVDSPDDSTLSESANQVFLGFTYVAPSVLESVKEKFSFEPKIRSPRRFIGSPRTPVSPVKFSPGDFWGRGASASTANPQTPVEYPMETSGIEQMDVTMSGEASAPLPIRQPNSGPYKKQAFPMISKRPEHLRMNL
UniProt P53350, sequence (whole entry, looked up): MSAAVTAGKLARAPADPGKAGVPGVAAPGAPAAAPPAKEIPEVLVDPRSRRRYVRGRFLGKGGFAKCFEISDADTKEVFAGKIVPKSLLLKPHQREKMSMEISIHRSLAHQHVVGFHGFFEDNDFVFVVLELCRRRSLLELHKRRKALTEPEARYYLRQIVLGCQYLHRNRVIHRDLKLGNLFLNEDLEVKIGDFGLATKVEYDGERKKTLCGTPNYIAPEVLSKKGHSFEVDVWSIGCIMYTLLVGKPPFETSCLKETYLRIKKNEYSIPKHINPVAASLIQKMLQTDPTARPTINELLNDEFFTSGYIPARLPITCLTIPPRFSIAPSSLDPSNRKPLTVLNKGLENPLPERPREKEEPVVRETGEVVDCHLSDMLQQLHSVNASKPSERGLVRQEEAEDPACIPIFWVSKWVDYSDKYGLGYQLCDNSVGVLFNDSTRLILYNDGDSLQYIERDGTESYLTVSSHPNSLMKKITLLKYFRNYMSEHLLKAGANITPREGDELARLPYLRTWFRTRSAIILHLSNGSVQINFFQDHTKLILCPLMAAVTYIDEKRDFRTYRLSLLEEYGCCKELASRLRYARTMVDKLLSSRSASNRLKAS

Sample 1
Target: Histone acetyltransferase KAT6A, winged helix 2, GST fusion (KAT6A, Homo sapiens, UniProt Q92794, residues 85-181)
Technique: protein binding microarray
Molecule type: double-stranded DNA, one strand shown
Sample: in vitro
Concentration: not given
Notes: 8-mer, flanks averaged, mean of 2 arrays, mostly near background
Reference: not given
Direction: higher = stronger binding
Endpoint: E-score
Construct (chain): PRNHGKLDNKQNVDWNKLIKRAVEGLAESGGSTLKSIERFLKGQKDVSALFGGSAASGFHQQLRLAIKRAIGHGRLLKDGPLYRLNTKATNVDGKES
Oligonucleotide = TAGCCACA; result = 0.0335
Oligonucleotide = TAATACCA; result = -0.0183
Oligonucleotide = AACATATG; result = -0.231
Oligonucleotide = AGGAATAA; result = -0.0403
Oligonucleotide = ATACCGTG; result = -0.139
Oligonucleotide = AGTAATCC; result = -0.101
Oligonucleotide = CTAACCAC; result = -0.0352
Oligonucleotide = ACTGGCGC; result = 0.182

Sample 2
SMILES: CCCCN(CCCC)C(=O)CN1C[C@H](c2cc(OC)c3c(c2)OCO3)[C@@H](C(=O)O)[C@@H]1CC(C)(C)CCC
Read-out: cell-free assay
Technique: competition with immobilised ligand
Concentration: 1 µM
Endpoint: remaining binding
target = Tyrosine-protein kinase ABL1, non-phosphorylated (ABL1, Homo sapiens, UniProt P00519, T315I); result = 100%
target = Ribosomal protein S6 kinase beta-1 (RPS6KB1, Homo sapiens, UniProt P23443); result = 92.8%
target = Ribosomal protein S6 kinase alpha-5, N-terminal kinase domain (RPS6KA5, Homo sapiens, UniProt O75582); result = 100%
target = Epidermal growth factor receptor (EGFR, Homo sapiens, UniProt P00533, T790M); result = 79%
target = Serine/threonine-protein kinase PLK1 (PLK1, Homo sapiens, UniProt P53350); result = 73.5%
target = Serine/threonine-protein kinase 26 (STK26, Homo sapiens, UniProt Q9P289); result = 72.9%
target = Ephrin type-A receptor 8 (EPHA8, Homo sapiens, UniProt P29322); result = 100%
target = Epidermal growth factor receptor (EGFR, Homo sapiens, UniProt P00533, L861Q); result = 76.4%
target = Ribosomal protein S6 kinase alpha-6, N-terminal kinase domain (RPS6KA6, Homo sapiens, UniProt Q9UK32); result = 76.4%
target = Cyclin-dependent kinase 7 (CDK7, Homo sapiens, UniProt P50613); result = 100%

Sample 3
Target: Protein max, full length (MAX, Homo sapiens, UniProt P61244-2, residues 1-151)
Technique: protein-binding microarray
Molecule type: double-stranded DNA, one strand shown
Sample: in vitro
Concentration: not given
Notes: k-mer, scored over probes, only values ≥0.25
Direction: higher = stronger binding
Endpoint: E-score
Oligonucleotide = CGTGGATA; result = 0.329
Oligonucleotide = ACGTTGAT; result = 0.258
Oligonucleotide = GGGCACAC; result = 0.285
Oligonucleotide = GCACACCA; result = 0.252
Oligonucleotide = ATCACGCA; result = 0.327
Oligonucleotide = AAACCACG; result = 0.423
Oligonucleotide = CGTGCCGC; result = 0.395
Oligonucleotide = AACATGCC; result = 0.34

Sample 4
SMILES: O=C(Nc1cccc(Nc2nccc(Nc3cccc(C(F)(F)F)c3)n2)c1)C1CC1
Read-out: enzyme activity
Action: inhibitor
Concentration: 0.5 µM
Reference: control
Endpoint: remaining activity
target = Cyclin-dependent kinase 9, with cyclin K (CDK9, Homo sapiens, UniProt P50750); result = 107%
target = Serine/threonine-protein kinase MRCK beta (CDC42BPB, Homo sapiens, UniProt Q9Y5S2); result = 96.6%
target = MAP/microtubule affinity-regulating kinase 4 (MARK4, Homo sapiens, UniProt Q96L34); result = 108%
target = Cyclin-dependent kinase 1, with cyclin A (CDK1, Homo sapiens, UniProt P06493); result = 95.9%
target = Calcium/calmodulin-dependent protein kinase type 1B (PNCK, Homo sapiens, UniProt Q6P2M8); result = 106%
target = Vascular endothelial growth factor receptor 2 (KDR, Homo sapiens, UniProt P35968); result = 91.6%
target = Serine/threonine-protein kinase MARK2 (MARK2, Homo sapiens, UniProt Q7KZI7); result = 97%
target = Rho-associated protein kinase 1 (ROCK1, Homo sapiens, UniProt Q13464); result = 101%
target = Serine/threonine-protein kinase PLK3 (PLK3, Homo sapiens, UniProt Q9H4B4); result = 90.2%
target = Misshapen-like kinase 1 (MINK1, Homo sapiens, UniProt Q8N4C8); result = 108%
target = Mitogen-activated protein kinase 1 (MAPK1, Homo sapiens, UniProt P28482); result = 89%

Repeated from above (sample 4):
target = Mitogen-activated protein kinase 1 (MAPK1, Homo sapiens, UniProt P28482); result = 89%
target = Misshapen-like kinase 1 (MINK1, Homo sapiens, UniProt Q8N4C8); result = 108%
